Measurements pooled from the literature.
± gives the spread as reported.

CC1(C)CCC2(CO)C(=C3C=CC4[C@@]5(C)CCC(O)[C@@](C)(CO)C5CC[C@@]4(C)[C@]3(C)C[C@H]2O)C1 (some centres unmarked)  Papp apical to basolateral (Caco-2 monolayer; Caco-2 bidirectional transport; 10 µM, 3 h, 37 °C): 5.18 ± 0.404 ×10⁻⁶ cm/s
O=C(O)C1OC(Oc2c(-c3ccccc3)oc3ccc(O)cc3c2=O)C(O)C(O)C1O (centres unmarked)  intracellular glucuronide concentration (HeLa-UGT1A9 cells; refers to: 3-O-glucuronide; 0.3125 µM aglycone loading, end of excretion): 53.2 ± 5.63 µM
CCN(Cc1cccc(S(=O)(=O)O)c1)c1ccc(C(=C2C=CC(=[N+](CC)Cc3cccc(S(=O)(=O)[O-])c3)C=C2)c2ccccc2)cc1  selectivity index (MT2; baseline: median CC50 over median IC50): 100 fold
O=c1[nH]cc(C(c2ccc(Cl)cc2)c2c[nH]c(=O)[nH]c2=O)c(=O)[nH]1  cytotoxicity (Mo7e; 1 µg/mL): not toxic
COc1cc2c(cc1O)[C@]1(O)C(=O)c3c(O)cc4c(c3O[C@@H]1CO2)C=CC(C)(C)O4  viability (SW480; cell growth or viability, MTT; 6.25 µg/mL): 124%
Cn1[c]([Ir-3]234([NH3+])[n]5c6ccc5C(c5c(F)c(F)c(F)c(F)c5F)=C5C=CC(=[N+]52)C(c2c(F)c(F)c(F)c(F)c2F)=c2ccc([n]23)=C(c2c(F)c(F)c(F)c(F)c2F)C2=[N+]4C(=C6c3c(F)c(F)c(F)c(F)c3F)C=C2)[n+](C)c2ccccc21.F[P-](F)(F)(F)(F)F  cellular uptake (NCI-H460; ICP-MS; 1 µM, 2 h): 236 ± 9.81 µg iridium/g protein
CC(=O)NC1C(N=C(N)N)C=C(C(=O)OC(C)OC(=O)C(N)C(C)C)OC1C(O)C(O)CO (mixture of isomers)  Papp (Caco-2 monolayer; 250 µM, apical to basolateral): 2.24 ± 0.133 ×10⁻⁶ cm/s
CC(=O)N[C@H](C(=O)N[C@H](C(=O)N[C@@H](CCCNC(=N)N)C(=O)N1Cc2ccccc2C[C@H]1C(=O)N[C@@H](Cc1ccccc1)C(N)=O)C1CCCCC1)C(C)C  cytokine level (human PBMC; Bio-Plex multiplex, refers to: FGF; 500 µg/mL, 24 h): 2.7 ± 1.2 pg/mL
O=C(O)C1OC(Oc2c(-c3ccccc3O)oc3ccccc3c2=O)C(O)C(O)C1O (centres unmarked)  intracellular glucuronide concentration (HeLa-UGT1A9 cells; refers to: 3-O-glucuronide; 0.625 µM aglycone loading, end of excretion): 21.4 ± 2.07 µM
CCCCn1cc(C(=O)O)c(=O)c2cc(F)c3[nH]nnc3c21  IC50 (HT-29; cell growth, SRB; 72 h): 120 ± 14.1 µg/mL
O=C(O)C1OC(Oc2c(-c3ccccc3)oc3cc(O)ccc3c2=O)C(O)C(O)C1O (centres unmarked)  intracellular glucuronide concentration (HeLa-UGT1A9 cells; refers to: 3-O-glucuronide; 0.3125 µM aglycone loading, end of excretion): 0.9 ± 0.04 µM
CC(C)=CCc1c2c(c(O)c3c(=O)c(-c4ccc(O)cc4)coc13)CC(C(C)(C)O)O2 (centres unmarked)  viability (SW480; cell growth or viability, MTT; 12.5 µg/mL): 140%
CCC(=O)N(C)c1ccc(Cl)c(Cl)c1  cells with multiple aberrations (CHO-WBL; 0.063 mg/mL, 3 h, with S9 activation): 0%
O=C(O)C1OC(Oc2c(-c3cccc(O)c3)oc3ccccc3c2=O)C(O)C(O)C1O (centres unmarked)  intracellular glucuronide concentration (HeLa-UGT1A9 cells; refers to: 3-O-glucuronide; 0.3125 µM aglycone loading, end of excretion): 3.65 ± 0.09 µM
[2H]C(N)(COc1cc(C(F)(F)F)cc(C(F)(F)F)c1)c1ccccc1 (centres unmarked)  concentration stopping beating (normal iPSC-derived cardiomyocytes; kinetic imaging cytometry): 66 µM
CC(C)(C)NC(=O)[C@@H]1C[C@@H]2CCCC[C@@H]2CN1C[C@@H](OC(=O)CCC(=O)OC[C@H](O)[C@H]1OC(=O)C(O)=C1O)[C@H](Cc1ccccc1)NC(=O)[C@H](CC(N)=O)NC(=O)c1ccc2ccccc2n1  absorptive permeability ratio (Caco-2 monolayer; baseline: compound over saquinavir): 4.7 fold
Cc1nc([C@@H](NC(=O)c2ccc(-c3ccc(Cl)cc3)[nH]2)[C@H]2CCCCN2)sc1CO  CC50 (U87/CD4/CCR5; cell growth or viability, XTT): ~30 µM
CC12CCCC(n3cc(C(=O)N4CCCC(N)C4)nn3)(C1)C1CC(C)(C)C1CC2 (centres unmarked)  viability (HT-29; 0.5 µM, 72 h, added: NAC 2 mM pretreatment 8 h): 95.4%
O=C1CCc2ccc(NS(=O)(=O)c3cccc(Oc4ccccc4)c3)cc2N1  cytotoxicity (HMC3; up to 1 µM): not toxic
O=C(OCc1cccc(O)c1O)c1ccc(O)c(CO)c1  cytotoxicity (H9c2; 20 µM, 48 h): not toxic
O=C(O)C1OC(Oc2ccc(-c3cc(=O)c4ccccc4o3)cc2)C(O)C(O)C1O (centres unmarked)  intracellular glucuronide concentration (HeLa-UGT1A9 cells; 15 µM aglycone loading, end of excretion): 146 ± 34.8 µM
CCC1=C(CC)C2=[N+]3C1=Cc1c(CC)c(CC)c4[n]1[Ir-3]31([n+]3ccccc3)([n+]3ccccc3)[n]3c(c(CC)c(CC)c3=CC3=[N+]1C(=C4)C(CC)=C3CC)=C2.[Cl-]  cellular uptake (NCI-H460; ICP-MS; 1 µM, 2 h): 305 ± 57.2 µg iridium/g protein
CC(C)C[C@H](NC(=O)[C@H](CCCNC(=N)N)NC(=O)[C@H](CCCNC(=N)N)NC(=O)[C@H](CCCCN)NC(=O)[C@@H](NC(=O)[C@@H]1CCCN1)C(C)C)C(=O)N[C@@H](Cc1ccccc1)C(=O)NCC(N)=O  cytotoxicity (U2OS; CellTiter-Glo; up to 50 µM, 24 h): not toxic
COc1ccc([C@@H]2CC(=O)c3c(O)cc(O[C@@H]4O[C@H](CO[C@@H]5O[C@@H](C)[C@H](O)[C@@H](O)[C@H]5O)[C@@H](O[C@H]5O[C@H](CO)[C@@H](O)[C@H](O)[C@H]5O)[C@H](O)[C@H]4O)cc3O2)cc1O  viability (MRC5; cell growth or viability, MTS; 100 µg/mL, 24 h): 55.2%
COc1cccc2c1C(=O)c1c(O)c3c(c(O)c1C2=O)CC(O)(C(=O)CO)CC3OC1CC(NC(=O)C[C@H](N)C(=O)O)C(O)C(C)O1 (some centres unmarked)  cellular uptake (HepG2 (LAT1-positive); HPLC; 20 µg/mL, 2 h, serum-free medium): 1.45 ± 0.046 µg/mL
CC1=CC(C)(C)N=C(Nc2nc(C)c3cc(C)cc(C)c3n2)N1  lowest cytotoxic concentration (IL-2 activated human PBMC; CellTiter-Glo; 48 h): 1 µM
COc1ccc(/C=C/C(=O)c2ccccc2)cc1OC  cytotoxicity (K562 transfected; concentration not given, added: TNF-alpha): toxic
CCCCn1cc(C(=O)O)c(=O)c2cc(F)c(N)c([N+](=O)[O-])c21  IC50 (HT-29; cell growth or viability, SRB): 432 µM
CC(C)=CCc1cc(-c2coc3cc(O)c(CC=C(C)C)c(O)c3c2=O)ccc1O  viability (SW480; cell growth or viability, MTT; 12.5 µg/mL): 134%
O=C(CCC(=O)NCCS(=O)(=O)O)NCCNC(=O)[C@@H](Cc1ccccc1)NC(=O)[C@@H](Cc1ccccc1)NC(=O)CCNc1ccc([N+](=O)[O-])c2nonc12  intracellular over medium concentration (HeLa; 200 µM, 24 h): 4 times
O=C(O)C1OC(Oc2cccc(-c3cc(=O)c4ccccc4o3)c2)C(O)C(O)C1O (centres unmarked)  intracellular glucuronide concentration (HeLa-UGT1A9 cells; 20 µM aglycone loading, end of excretion): 85.7 ± 9.88 µM
CC1(C)CCC23COC4(C=CC5C6(C)CCC(O)C(C)(CO)C6CCC5(C)C4(C)CC2O)C3C1 (centres unmarked)  recovery apical to basolateral (Caco-2 monolayer; Caco-2 bidirectional transport; 10 µM, 3 h, 37 °C): 103%
COc1ccc(-c2coc3c(CC=C(C)C)c(O)c(CC=C(C)C)c(O)c3c2=O)cc1O  viability (SW480; cell growth or viability, MTT; 100 µg/mL): 7.83%
Cn1c(=O)c(=O)n(C)c2cc(S(=O)(=O)NNC(=S)Nc3ccccc3)ccc21  inhibition (hTERT-RPE1; cell viability, MTT; concentration not given): 6.9%
C=CC(=O)Nc1cccc2c1cc(C)n2-c1nc2c(c(NCc3ccccc3)n1)CCCC2  viability (Huh-7 cells, uninfected; 0.25 µM, 5 days): 90 ± 3%

Some of these lines once more:
COc1ccc([C@@H]2CC(=O)c3c(O)cc(O[C@@H]4O[C@H](CO[C@@H]5O[C@@H](C)[C@H](O)[C@@H](O)[C@H]5O)[C@@H](O[C@H]5O[C@H](CO)[C@@H](O)[C@H](O)[C@H]5O)[C@H](O)[C@H]4O)cc3O2)cc1O  viability (MRC5; cell growth or viability, MTS; 100 µg/mL, 24 h): 55.2%
CC(C)C[C@H](NC(=O)[C@H](CCCNC(=N)N)NC(=O)[C@H](CCCNC(=N)N)NC(=O)[C@H](CCCCN)NC(=O)[C@@H](NC(=O)[C@@H]1CCCN1)C(C)C)C(=O)N[C@@H](Cc1ccccc1)C(=O)NCC(N)=O  cytotoxicity (U2OS; CellTiter-Glo; up to 50 µM, 24 h): not toxic
CCC1=C(CC)C2=[N+]3C1=Cc1c(CC)c(CC)c4[n]1[Ir-3]31([n+]3ccccc3)([n+]3ccccc3)[n]3c(c(CC)c(CC)c3=CC3=[N+]1C(=C4)C(CC)=C3CC)=C2.[Cl-]  cellular uptake (NCI-H460; ICP-MS; 1 µM, 2 h): 305 ± 57.2 µg iridium/g protein
